Experimental data gathered from unrelated publications.
Lines come from different studies, so protocols differ. “And” joins repeats or separate records; there may be more than shown. ± marks the error that the study gave. Converted amounts (≈) assume the structure as drawn.

SMILES | organism | test | system | setting | scale | quantity | value
COc1ccc2c(ccc3oc([N+](=O)[O-])cc32)c1 | Mycobacteroides abscessus | REMA | ATCC 19977 |  |  | MIC90 | 0.5 µg/mL (≈ 2.06 µM)
CO/N=C(\C(=O)N[C@@H]1C(=O)N2C(C(=O)O)=C(CSC(=O)c3ccco3)CS[C@H]12)c1csc(N)n1 | Staphylococcus aureus |  | CAAS-2019-CAAS-2019-14 clinical blaZ-resistant isolate, 25% plasma |  |  | MBC | 64 µg/mL
O=C(O)c1ccc2c(c1)nc(Nc1cccc(Cl)c1)c1ccncc12 | human coronavirus OC43 | virus-induced cell killing | MRC-5 | screen |  | maximum inhibition | 8.72%
Cc1c2c(nn1C)CSCc1cc(n(C)n1)CSc1cc(c3ccccc3c1)OCCCc1c(C(=O)O)n(C)c3c-2c(Cl)ccc13 | Staphylococcus aureus | label-free quantitative proteomics, measured: SAOUHSC_00284 protein | SA113 | concentration not given | reference: untreated control | fold change | 0.0361
OC[C@H]1O[C@@H](n2ccc3c(SCc4ccc(F)cc4F)ncnc32)[C@H](O)[C@@H]1O | Toxoplasma gondii | [3H]uracil incorporation | human fibroblasts, RH wild type | 50 µM |  | survival | 0%
COc1ccc([C@@]23Oc4cc(OC)cc(OC)c4[C@@]24N=C(C)N[C@@]4(O)[C@H](C(=O)N(C)OC)[C@H]3c2ccccc2)cc1 | Hepatitis E virus | viral replication | HepG2 HEV-3 replicon, genotype 3 wild boar isolate | 48 h |  | EC50 | 1.2 nM
O=C(Nc1ccccc1-c1cn2c(CN3CCNCC3)csc2n1)c1cnc2ccccc2n1 | human coronavirus OC43 | virus-induced cell killing | MRC-5 | maximum over 10 doses |  | maximum inhibition | 0%
Cc1ccc(CSc2ncnc3c2ccn3[C@@H]2O[C@H](CO)[C@@H](O)[C@H]2O)cc1 | Toxoplasma gondii | [3H]uracil incorporation | human fibroblasts, RH wild type | 25 µM |  | survival | 1.7%
C[C@@H](NC(=O)Nc1cc2[nH]ncc2c(CO)n1)c1ccccc1 | mouse hepatitis virus | viral replication | nanoluciferase reporter | 1 µM |  | inhibition | 27%
CC[C@H](C)[C@H](NC(=O)[C@H](C)NC(=O)[C@H](CCCCN)NC(=O)[C@H](CC(C)C)NC(=O)[C@H](C)NC(=O)[C@@H](NC(=O)[C@H](Cc1c[nH]cn1)NC(=O)[C@H](CC(C)C)NC(=O)[C@@H](NC(=O)[C@@H](NC(=O)[C@H](CCCCN)NC(=O)[C@H](C)NC(=O)[C@H](C)NC(=O)[C@H](CO)NC(=O)[C@H](CCCCN)NC(=O)[C@H](Cc1ccccc1)NC(=O)[C@@H](NC(=O)[C@H](CCCCN)NC(=O)[C@H](CC(C)C)NC(=O)[C@H](Cc1ccccc1)NC(=O)[C@H](CO)NC(=O)[C@H](CCCCN)NC(=O)[C@H](Cc1c[nH]c2ccccc12)NC(=O)[C@H](CCCCN)NC(C)=O)[C@@H](C)O)[C@@H](C)O)C(C)C)[C@@H](C)O)C(=O)N[C@@H](CO)C(=O)N[C@@H](CO)C(N)=O | Streptococcus pyogenes |  | ATCC 19615 | 1 strain |  | MIC50 | 8 µg/mL (≈ 2.73 µM)
O=[N+]([O-])c1cc2c(ccc3c4cc([N+](=O)[O-])oc4ccc23)o1 | Salmonella enterica | REMA |  |  |  | MIC90 | < 0.25 µg/mL
OC[C@H]1O[C@@H](n2ccc3c(SCc4ccc(Cl)cc4Cl)ncnc32)[C@H](O)[C@@H]1O | Toxoplasma gondii | [3H]uracil incorporation | human fibroblasts, RH wild type | 5 µM |  | survival | 82.3%
C[C@@H]1C[C@@H]([C@H](O)CC2CC(=O)NC(=O)C2)C(=O)[C@@H](C)C1 | Mus musculus | gene silencing, high-content imaging | LDR reporter GFP cells | retest run 1 |  | AC50 | 10000 nM
O=C(NCc1cccc(O)c1)Nc1nc(-c2ccncc2)cs1 | mouse hepatitis virus | viral replication | nanoluciferase reporter | 1 µM |  | inhibition | 13%
c1ccc2c(c1)[I+]c1ccccc1-2 | Toxoplasma gondii |  |  | tachyzoites |  | EC90 | 284 nM
COc1cnc(OC)n2nc(NS(=O)(=O)c3c(OCC(F)F)cccc3C(F)(F)F)nc12 | Amaranthus retroflexus |  | greenhouse | postemergence, 150 g ai/ha, 21 days |  | fresh weight inhibition | 94.2 ± 1.93%
C[C@@H]1CN(c2cc(-c3n[nH]c4ccc(OC5(C)CC5)cc34)ncn2)C[C@H](C)O1 | mouse hepatitis virus | viral replication | nanoluciferase reporter | 1 µM |  | inhibition | 37%
CCCCCC[C@H]1C(=O)O[C@H](C)[C@H](NC(=O)c2cccc(NC=O)c2O)C(=O)O[C@@H](C)[C@@H]1OC(=O)CC(C)C | Equid alphaherpesvirus 1 | viral replication | RK-13 |  |  | IC50 | 37 nM
CCCCc1ccc(CNc2nc(N(C)C)nc(N(C)C)c2/N=N/c2ccc(Cl)cc2)cc1 | Ostrinia furnacalis | leaf dipping |  | 12.5 mg/L |  | mortality | 46.7%
C[C@]12CC[C@@H]3c4ccc(O)cc4CC[C@H]3[C@@H]1CC[C@@H]2O | human coronavirus OC43 | virus-induced cell killing | MRC-5 | screen |  | maximum inhibition | 5.66%
CN(C)C(=O)Cn1cc(-c2ccc(-c3nnc4ccccn34)cc2)cn1 | mouse hepatitis virus | viral replication | nanoluciferase reporter | 1 µM |  | inhibition | 44%
Cc1c([N+](=O)[O-])oc2ccc3ccccc3c12 | Salmonella enterica | REMA |  |  |  | MIC90 | < 0.25 µg/mL
C/C=C(/C)C(=O)O[C@H]1C(C)=C2C([C@@H]1OC(=O)CCCCCCC)[C@@](C)(OC(C)=O)C[C@H](OC(=O)CCC)[C@@]1(O)[C@H]2OC(=O)[C@@]1(C)O (stereo partly shown) | Mus musculus | gene silencing, high-content imaging | LDR reporter GFP cells | retest run 2 |  | maximal activity | 96%
C[C@H]1COc2c(N3CCN(C)CC3)c(F)cc3c(=O)c(C(=O)O)cn1c23 | Staphylococcus, coagulase-negative |  |  |  |  | MIC90 | 16 µg/mL (≈ 44.3 µM)
COc1cnc(OC)n2nc(NS(=O)(=O)c3c(OCC(F)F)cccc3C(F)(F)F)nc12 | Amaranthus retroflexus | fresh weight |  | 150 g ai/ha, post-emergence treatment |  | inhibition | 97.9% and 91.8% and 97.8%

SMILES | organism | test | system | setting | scale | quantity | value
N=C(N)NCCC[C@H](NC(=O)[C@H](Cc1c[nH]c2ccccc12)NC(=O)[C@H](CCCNC(=N)N)NC(=O)[C@H](Cc1c[nH]c2ccccc12)NC(=O)[C@H](Cc1c[nH]c2ccccc12)NC(=O)[C@H](Cc1c[nH]c2ccccc12)NC(=O)[C@H](CCCNC(=N)N)NC(=O)[C@H](Cc1c[nH]c2ccccc12)NC(=O)[C@@H](N)CCCNC(=N)N)C(=O)N[C@@H](Cc1c[nH]c2ccccc12)C(N)=O | Candida albicans | broth microdilution | CGMCC 2.209, RPMI 1640-MOPS | 48 h, 30 °C, added: CaCl2 2 mM |  | MIC | 32 µM (≈ 56.3 µg/mL)
CC[C@H]1OC(=O)[C@H](C)[C@@H](O[C@H]2C[C@@](C)(OC)[C@@H](O)[C@H](C)O2)[C@H](C)[C@@H](O[C@@H]2O[C@H](C)C[C@H](N(C)C)[C@H]2O)[C@](C)(O)C[C@@H](C)CN(C)[C@H](C)[C@@H](O)[C@]1(C)O | Staphylococcus, coagulase-negative |  |  |  |  | MIC90 | > 32 µg/mL
Fc1ccc(C(OCCN2CCN(CCCc3ccccc3)CC2)c2ccc(F)cc2)cc1 | Toxoplasma gondii | parasite growth, luciferase reporter | HFF, tachyzoite | 72 h |  | EC90 | 44900 nM
COc1cc2c(cc1O)CC[C@@H]1[C@@H]2CC[C@]2(C)[C@@H](O)CC[C@@H]12 | human coronavirus OC43 | virus-induced cell killing | MRC-5 | screen |  | maximum inhibition | 2.11%
OC[C@H]1O[C@@H](n2ccc3c(O)ncnc32)[C@H](O)[C@@H]1O | Toxoplasma gondii | [3H]uracil incorporation | human fibroblasts, adenosine kinase-deficient | 50 µM |  | parasite survival | 100%
Nc1ncnc2c1ncn2[C@@H]1O[C@@H]2COP(=O)(O)O[C@H]3[C@@H](O)[C@H](n4cnc5c(=O)[nH]cnc54)O[C@@H]3COP(=O)(O)O[C@H]2[C@H]1O | West Nile virus | RNA sequencing, measured: formation, elastic fibre, R-HSA-1566948 | HFF-1 cells | concentration not given, downregulated pathway | reference: WNV-infected untreated cells | fold enrichment | 7.33
COC(=O)[C@@H]1[C@@H](c2ccccc2)[C@]2(c3ccc(OC)cc3)Oc3cc(OC)cc(OC)c3[C@@]23N=C(C)N[C@@]13O | Hepatitis E virus | viral replication | HepG2 HEV-3 replicon, genotype 3 wild boar isolate | 48 h |  | EC50 | 2.52 nM
CCc1cncnc1N1CCN(Cc2nc3ccc(C(F)(F)F)cc3[nH]2)CC1 | mouse hepatitis virus | viral replication | nanoluciferase reporter | 1 µM |  | inhibition | 0%
N#Cc1ccc2c(ccc3oc([N+](=O)[O-])cc32)c1 | Mycobacteroides abscessus | REMA | ATCC 19977 |  |  | MIC90 | > 32 µg/mL
CNC[C@H](O)[C@@H](O)[C@H](O)[C@H](O)CO.[O]=[Sb](=[O])[OH] | Leishmania major |  | BALB/c mouse | topical, dose not given, 28 days, unit not given | reference: PBS | lesion size difference | 9.77
CCOC(=O)/C=C/[C@H](C[C@@H]1CCNC1=O)NC(=O)[C@@H](CC(=O)[C@@H](NC(=O)c1cc(C)on1)C(C)C)Cc1ccc(F)cc1 | Rhinovirus C | viral replication, high-content imaging | HeLa-CDHR3 C529Y, RV-C15a-mGL | 3 dpi |  | IC50 | 9 nM
CO[C@H]1/C=C/O[C@@]2(C)Oc3c(C)c(O)c4c(O)c(c(/C=N/N5CCN(C)CC5)c(O)c4c3C2=O)NC(=O)/C(C)=C\C=C\[C@H](C)[C@H](O)[C@@H](C)[C@@H](O)[C@@H](C)[C@H](OC(C)=O)[C@@H]1C | Mycobacteroides abscessus | REMA | ATCC 19977 |  |  | MIC90 | > 32 µg/mL
CN1CC[C@@]2(C)c3cc(OC(=O)Nc4ccccc4)ccc3N(C)[C@@H]12 | Toxoplasma gondii | parasite growth, luciferase reporter | HFF, tachyzoite | 72 h |  | EC90 | 30000 nM
C[C@H]1COC2(CCN(c3nc(=O)c4cc(C(F)(F)F)cc([N+](=O)[O-])c4s3)CC2)O1 (racemic) | human coronavirus OC43 | virus-induced cell killing | MRC-5 | maximum over 10 doses |  | maximum inhibition | 0%
O=C(NCc1ccccc1)c1ccc(S(=O)(=O)NCc2ccccc2)cc1 | mouse hepatitis virus | viral replication | nanoluciferase reporter | 1 µM |  | inhibition | 31%
CS(=O)(=O)CCCn1c(Cn2c(=O)n(CC(F)(F)F)c3ccncc32)cc2cc(Cl)ccc21 | respiratory syncytial virus | RT-qPCR | hospitalized infants 1-24 months, nasal swab | oral, 6, 4.5 or 3 mg/kg daily, day 6, mid dose by age cohort | reference: baseline | LS mean viral load change | -5.8 log10 copies/mL
COC(=O)N[C@H](C(=O)N1CCC[C@H]1c1ncc(-c2ccc(-c3ccc(-c4cnc([C@@H]5CCCN5C(=O)[C@@H](NC(=O)OC)C(C)C)[nH]4)cc3)cc2)[nH]1)C(C)C | Hepatitis C virus |  | replicon cells | 90% effect level, added: NS5B inhibitor, ratio 1:1 |  | combination index | 0.96
OC[C@H]1O[C@@H](n2ccc3c(SCc4ccc(Cl)c(Cl)c4)ncnc32)[C@H](O)[C@@H]1O | Toxoplasma gondii | [3H]uracil incorporation | human fibroblasts, RH wild type | 25 µM |  | survival | 13.4%
CO[C@H]1C[C@@H]2CC[C@@H](C)[C@@](O)(O2)C(=O)C(=O)N2CCCC[C@H]2C(=O)O[C@H]([C@H](C)C[C@@H]2CC[C@@H](O)[C@H](OC)C2)CC(=O)[C@H](C)/C=C(\C)[C@@H](O)[C@@H](OC)C(=O)[C@H](C)C[C@H](C)/C=C/C=C/C=C/1C | human coronavirus OC43 | virus-induced cell killing | MRC-5 | maximum over 10 doses |  | maximum inhibition | 0%
C[C@H]1CCC/C=C/[C@@H]2C[C@H](O)C[C@H]2[C@H](O)/C=C/C(=O)O1 | Toxoplasma gondii | tachyzoite growth, luciferase | ME49-Fluc, type II |  |  | EC50 | 50 nM
O=C(/C=C/c1cccnc1)c1ccncc1 | human coronavirus OC43 | virus-induced cell killing | MRC-5 | screen |  | maximum inhibition | 4.3%
CCOC(=O)COc1ccc2ccc3oc([N+](=O)[O-])cc3c2c1 | Salmonella enterica | REMA |  |  |  | MIC90 | 0.5 µg/mL (≈ 1.59 µM)
O=C(O)c1ccc2cc(-c3ccc(O)c(C45CC6CC(CC(C6)C4)C5)c3)ccc2c1 | human coronavirus OC43 | virus-induced cell killing | MRC-5 | screen |  | maximum inhibition | 30.1%
Cn1c(=O)ccc2ccc(F)c(CCNC[C@H]3CN(c4cnc5c(n4)NC(=O)CO5)C(=O)O3)c21 | Klebsiella oxytoca |  |  |  |  | MIC50 | 0.25 µg/mL (≈ 0.534 µM)

Excerpt of the above:
SMILES | organism | test | system | setting | scale | quantity | value
CO[C@H]1C[C@@H]2CC[C@@H](C)[C@@](O)(O2)C(=O)C(=O)N2CCCC[C@H]2C(=O)O[C@H]([C@H](C)C[C@@H]2CC[C@@H](O)[C@H](OC)C2)CC(=O)[C@H](C)/C=C(\C)[C@@H](O)[C@@H](OC)C(=O)[C@H](C)C[C@H](C)/C=C/C=C/C=C/1C | human coronavirus OC43 | virus-induced cell killing | MRC-5 | maximum over 10 doses |  | maximum inhibition | 0%
C[C@H]1CCC/C=C/[C@@H]2C[C@H](O)C[C@H]2[C@H](O)/C=C/C(=O)O1 | Toxoplasma gondii | tachyzoite growth, luciferase | ME49-Fluc, type II |  |  | EC50 | 50 nM
O=C(/C=C/c1cccnc1)c1ccncc1 | human coronavirus OC43 | virus-induced cell killing | MRC-5 | screen |  | maximum inhibition | 4.3%
